Measurements gathered from unrelated publications.
Compare with care: the assays were run in different laboratories. “And” joins repeats or separate records; there may be more than shown. ± marks the error that the study gave. In brackets after ≈: the same amount, converted by molar mass.

Structure (SMILES) | tested on | assay | system | conditions | how to read | measurement | value
CC[C@H](C)[C@H](NC(=O)[C@H](CCCNC(=N)N)NC(=O)[C@H](CO)NC(=O)[C@H](Cc1ccc(O)cc1)NC(=O)[C@@H](NC(=O)[C@@H](NC(=O)[C@H](C)NC(=O)CN)C(C)C)[C@@H](C)O)C(=O)N[C@@H](CO)C(=O)NCC(=O)N[C@@H](CCC(N)=O)C(=O)N[C@@H](Cc1ccc(O)cc1)C(=O)O |  | broth microdilution | 29213, Mueller-Hinton broth | 16 to 18 h, 37 °C |  | MIC | > 512 µM
C=CCNc1c(O)cc2c(O)c1C[C@@H](C)C[C@H](OC)[C@H](O)[C@@H](C)/C=C(\C)[C@H](OC(N)=O)[C@@H](OC)/C=C\C=C(/C)C(=O)N2 |  |  | patients with STS, GIST or other tumours | dose not given |  | median progression-free survival | 9.1 weeks
Clc1cc2c(cc1Cl)Oc1cc(Cl)c(Cl)cc1O2 |  | RNA-Seq, refers to: Ptger2 | Sprague-Dawley rat, female, liver | 10 µg/kg | reference: vehicle | mRNA fold change | 1.2 fold
C[C@H]1O[C@@H](O[C@H]2CC[C@@]3(C)[C@@H](CC[C@]4(C)[C@@H]3C=C[C@]35OC[C@@]6(CCC(C)(C)C[C@H]63)[C@@H](O)C[C@]54C)[C@]2(C)CO)[C@H](O)[C@@H](O[C@@H]2O[C@H](CO)[C@@H](O)[C@H](O)[C@H]2O)[C@H]1O |  |  | mouse, ethanol-fed, hepatic SIRT1 knockdown, serum | dose not given, 5 h, high dose |  | triglycerides | 1.44 mM and 1.2 mM and 1.21 mM and 1.55 mM and 1.37 mM and 1.32 mM
COc1ccc(CCN(C)CCCC(C#N)(c2ccc(OC)c(OC)c2)C(C)C)cc1OC (stereo not shown) | Plasmodium falciparum |  | D10 |  |  | IC50 | 5.01 µM
[131I-].[Na+] |  | ATA response criteria | human, papillary thyroid cancer with metastases | 3700 MBq |  | biochemical incomplete response | 13.4%
CC(N)C(=O)OC(C)(C)Cc1ccc(Cl)cc1 (stereo not shown) | Plasmodium falciparum |  | GB4 |  |  | IC50 | 1.26 µM
CCCCC1(CCCC)CN(c2ccccc2)c2cc(SC)c(OCC(=O)N[C@@H](C(=O)NCC(=O)O)c3ccccc3)cc2S(=O)(=O)C1 |  | refers to: HDL cholesterol | human, serum | 10 mg once daily, day 8 |  | serum HDL-C | 49 mg/dL
c1csc(-c2ccc(-c3cccs3)s2)c1 |  |  | C57BL/6J mouse, diet-induced obese | intraperitoneal, 5 mg/kg daily, 336 h |  | body weight | 50.3 ± 6.79 g
C[C@]1(CO)Cc2ncn(-c3ccc(C#N)c(Cl)c3)c2C(=O)O1 |  |  | Japanese subjects | 3 mg single dose |  | urinary sodium excretion 0-24 h | 110 mmol
CC[C@H](C)[C@@H]1NC(=O)[C@@H]2CCCN2C(=O)[C@H](CC(C)C)NC(=O)[C@H](CC(C)C)NC(=O)CNC(=O)[C@@H](NC(=O)[C@@H](NC(=O)[C@H](CC(=O)O)NC(=O)CNC(=O)[C@@H](NC(=O)[C@H](C)NC(=O)CNC(=O)[C@H](CCCCN)NC(=O)[C@H](CC(C)C)NC(=O)[C@H](CC(C)C)NC(=O)[C@H](CCCCN)NC(=O)CNC(=O)[C@@H](NC(=O)[C@@H](N)CC(C)C)C(C)C)C(C)C)C(C)C)CSSC[C@@H](C(=O)O)NC1=O |  | RNA-seq, refers to: Il27 | mouse, traumatic brain injury model, frontal cortex and hippocampus | dose not given | reference: TBI alone | log2 fold change | -4.07
CN1CCN(S(=O)(=O)c2cc([N+](=O)[O-])ccc2N(CCOS(C)(=O)=O)CCOS(C)(=O)=O)CC1 |  |  | NSG mice, sample CH PDX | intraperitoneal, 25 mg/kg weekly x3 | reference: treated over vehicle | EFS ratio (T/C) | > 54.8
Cn1ncc(-c2nc(N[C@H]3CC[C@H](N)CC3)ncc2Cl)c1CC1CC1 |  | phase I clinical trial | R/R AML or high-risk MDS patients | dose not given |  | median duration of response | 1.9 months
C[C@]12CC[C@H](O)C[C@H]1CC[C@@H]1[C@@H]2CC[C@]2(C)[C@@H](c3ccc(=O)oc3)CC[C@]12O |  |  | female nude mouse LCC2 xenograft | 0.5 mg/kg, day 11, tamoxifen-resistant |  | tumour volume | 59.3 mm3 and 54.1 mm3 and 63.2 mm3 and 73.2 mm3 and 67.6 mm3 and 67.4 mm3
N=C(N)NCCC[C@H](NC(=O)CCCCCNC(=O)[C@H](CCCNC(=N)N)NC(=O)[C@H](CCCNC(=N)N)NC(=O)CCCCCNC(=O)[C@H](CCCNC(=N)N)NC(=O)[C@H](CCCNC(=N)N)NC(=O)CCCCCNC(=O)[C@H](CCCNC(=N)N)NC(=O)[C@H](CCCNC(=N)N)NC(=O)CCCCCNC(=O)[C@@H](N)CCCNC(=N)N)C(=O)NCCCCCC(=O)NCCC(=O)O |  | broth microdilution | ATCC 33591 resistant strain, Mueller-Hinton broth |  |  | MIC | 48 µM (≈ 91.4 µg/mL)
Nc1ncnc2c1ncn2[C@@H]1O[C@H](COP(=O)(O)OS(=O)(=O)O)[C@@H](O)[C@H]1O |  | binding, MIDAS equilibrium dialysis LC-MS | A2AR-BRIL thermostabilized | concentration not given | reference: no-protein control | log2 fold change | -0.155
Oc1cc(Br)cc(Br)c1Oc1ccc(Br)cc1Br |  | sulfonation | human liver cytosol |  |  | Vmax/Km | 41.2 ± 15.5 µL/min/mg
Cc1nc(Nc2ccc(CC(=O)O)cc2)nc(Nc2ccc(F)c(C(F)(F)F)c2)c1C |  |  | C57BL/6J mouse, high-fat diet MASH model | intraperitoneal, 0.3 mg/kg daily, 60% fat diet for 12 weeks, dosed final four weeks | reference: untreated | inguinal white adipose weight | decreased
O=C1OC[C@@H](O)[C@H]1O |  | binding, MIDAS equilibrium dialysis LC-MS | A2AR-BRIL thermostabilized | concentration not given | reference: no-protein control | log2 fold change | 0.759

Some of these lines once more:
Structure (SMILES) | tested on | assay | system | conditions | how to read | measurement | value
COc1ccc(CCN(C)CCCC(C#N)(c2ccc(OC)c(OC)c2)C(C)C)cc1OC (stereo not shown) | Plasmodium falciparum |  | D10 |  |  | IC50 | 5.01 µM
